Measured values of several laboratories.
± gives the spread as reported.
GSK3B: Glycogen synthase kinase-3 beta (GSK3B, Homo sapiens, UniProt P49841)
UniProt P49841, sequence (whole entry, looked up): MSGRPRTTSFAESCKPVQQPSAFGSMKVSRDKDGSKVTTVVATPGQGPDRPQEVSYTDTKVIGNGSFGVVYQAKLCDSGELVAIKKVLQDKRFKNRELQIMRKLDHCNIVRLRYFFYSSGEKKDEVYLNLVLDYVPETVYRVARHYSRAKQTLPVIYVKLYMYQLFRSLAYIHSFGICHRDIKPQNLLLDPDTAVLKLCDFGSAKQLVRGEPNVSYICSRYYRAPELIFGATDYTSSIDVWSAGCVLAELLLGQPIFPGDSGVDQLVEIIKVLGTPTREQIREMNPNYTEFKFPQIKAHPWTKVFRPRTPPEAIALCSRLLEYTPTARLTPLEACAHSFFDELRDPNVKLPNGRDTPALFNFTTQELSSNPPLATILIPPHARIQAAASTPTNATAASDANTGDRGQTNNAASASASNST
UCHL1: Ubiquitin carboxyl-terminal hydrolase isozyme L1 (UCHL1, Homo sapiens, UniProt P09936)
UniProt P09936, sequence (whole entry, looked up): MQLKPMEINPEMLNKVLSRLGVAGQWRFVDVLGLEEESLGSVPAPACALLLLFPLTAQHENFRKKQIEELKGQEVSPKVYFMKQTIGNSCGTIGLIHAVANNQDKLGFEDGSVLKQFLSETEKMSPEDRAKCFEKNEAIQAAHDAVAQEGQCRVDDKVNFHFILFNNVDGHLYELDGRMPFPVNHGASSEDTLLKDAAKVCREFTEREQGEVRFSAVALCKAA
GSK3B with Nav1.6: Glycogen synthase kinase-3 beta, with Nav1.6 (GSK3B, Homo sapiens, UniProt P49841)

SMILES | target | test | system | setting | how to read | endpoint | result
Cn1sc(=O)n(Cc2ccccc2)c1=O | GSK3B | – | yeast expressing human GSK-3 | 20 mM, 28 °C | – | inhibition zone diameter | 16.7 ± 1.41 mm
CC(C)(C)C(=O)c1sc(NC2CCCCC2)nc1N | GSK3B | enzyme activity, inhibitor | – | 10 µM | – | remaining activity | 15%
COc1cc(C=C(C(=O)/C=C/c2ccc(O)c(OC)c2)C(=O)/C=C/c2ccc(O)c(OC)c2)ccc1O | GSK3B | – | – | concentration not given, cell-based | – | activity | inactive
CN1CCN2c3ccccc3Cc3ccccc3C2C1 (centres unmarked) | GSK3B | enzyme activity, inhibitor, ADP-Glo | – | 100 µM | – | inhibition | no inhibition
COc1cc(/C=C/C(=O)CC(=O)/C=C/c2ccc(O)c(OC)c2)ccc1O | GSK3B | – | – | concentration not given, cell-based | – | activity | inactive
COc1ccc(F)cc1C(=O)NCc1ccc(-c2nn([C@@H](C)C(F)(F)F)c(N)c2C(N)=O)cc1 | GSK3B | target engagement, competitive chemoproteomics | human PBMCs | 1 µM | – | inhibition | -76%
Cc1ccc(C2=NN(C(=O)CCl)C(c3cccs3)C2)o1 (centres unmarked) | UCHL1 | covalent, intact protein LC-MS | – | 12.5 µM | – | labelling | 16.3%
Cc1ccc(C(=O)CC2(O)C(=O)Nc3ccc(NC(=O)c4ccccc4)cc32)cc1 (centres unmarked) | GSK3B | – | – | concentration not given | – | activity | active
Cl.c1ccc2c(c1)CN1CCCC1=N2 | GSK3B | enzyme activity, inhibitor, ADP-Glo | – | 100 µM | – | inhibition | no inhibition
COc1cc(/C=C2\CCC/C(=C\c3ccc(O)c(OC)c3)C2=O)ccc1O | GSK3B | – | – | concentration not given, cell-based | – | activity | inactive
CC(C)(C)NC[C@H](O)COc1ccccc1C1CCCC1 | GSK3B | enzyme activity, inhibitor, ADP-Glo | – | 100 µM | – | inhibition | no inhibition
Cc1c[nH]c(-c2cnc(NCCNc3ccc(C#N)cn3)nc2-c2ccc(Cl)cc2Cl)n1 | GSK3B with Nav1.6 | protein complex assembly, split-luciferase complementation | HEK293 | 2 µM | baseline: DMSO control | luminescence | 103 ± 2.6%
CCOCCn1c(N2CCCN(C)CC2)nc2ccccc21 | GSK3B | enzyme activity, inhibitor, ADP-Glo | – | 100 µM | – | inhibition | no inhibition
CCOC(=O)c1c(NC(=O)CNC(C)C)sc2c1CCCCC2 | GSK3B with Nav1.6 | protein complex assembly, split-luciferase complementation | HEK293 | concentration not given, added: CHIR99021 2 µM | baseline: DMSO control | luminescence | 58.7 ± 3.9%
C=CC(=O)N1CCC(COCC(=O)N2CCN(c3nc(-c4cnc(N)nc4C(F)F)nc(N4CCOC[C@@H]4C)n3)CC2)CC1 | GSK3B | KINOMEscan | – | 1 µM | – | remaining binding | 99%
CC(C)C(Br)C(=O)Nc1ccc(Oc2ccccc2)cc1 (centres unmarked) | UCHL1 | covalent, intact protein LC-MS | – | 12.5 µM | – | labelling | 15.7%
Cc1ccc(OCC(=O)Nc2ccc3c(c2)C(=O)NC3=O)cc1 | GSK3B with Nav1.6 | protein complex assembly, split-luciferase complementation | HEK293 with Nav1.6 co-transfected | 0.5 to 150 µM | – | maximal inhibition | 4.7%

Repeated from above:
SMILES | target | test | system | setting | how to read | endpoint | result
CCOCCn1c(N2CCCN(C)CC2)nc2ccccc21 | GSK3B | enzyme activity, inhibitor, ADP-Glo | – | 100 µM | – | inhibition | no inhibition
